Measured values of several laboratories.
Each numbered part is a random draw from the data of one study; scales do not carry over between parts.

Sample 1 — technique: RNA Bind-n-Seq; form: RNA; medium: in vitro; tested at: 20 nM; setting: 6-mer, flanks averaged, single round; added: 150 mM KCl; relative to: input library; reading: higher = stronger binding
Target: TAR DNA-binding protein 43, full length, His tag (TARDBP, Homo sapiens, UniProt Q13148, residues 1-414)
| Strand | 6-mer enrichment (R) |
| --- | --- |
| UUAUCU | 0.563 |
| UCUGUA | 0.647 |
| UGCCAC | 0.684 |
| AUGGUU | 0.764 |
| GUAGUU | 0.794 |
| CGAUUC | 0.563 |
| CUCCAC | 0.593 |
| UGUACC | 0.656 |
| GCAGGC | 1.6 |
| CUGUUC | 0.587 |
| GUGGGC | 4.26 |
| CACCAG | 0.749 |
| UCCUAC | 0.553 |
| CGAGCU | 0.749 |
| UGAGUG | 1.8 |
| CAGUCC | 0.623 |
| GGUAAU | 0.906 |
| AGCGCA | 0.897 |
| GCUUGU | 0.815 |
| GCAACA | 0.764 |
| CAGGGU | 2 |
| ACGGAC | 0.924 |
| AAUGUG | 1.06 |
| CGUACU | 0.585 |
| AGCCCA | 0.671 |

Sample 2 — technique: EMSA with sequencing; form: double-stranded DNA, one strand shown; medium: in vitro; tested at: 10 and 20 nM; relative to: negative control set to 0; reading: higher = stronger binding
Target: Hepatocyte nuclear factor 3-alpha (Foxa1, Mus musculus, UniProt P35582, residues 1-468, full length assumed)
Setting: whole designed probe, mean of two concentrations, ends assumed
Residues (chain): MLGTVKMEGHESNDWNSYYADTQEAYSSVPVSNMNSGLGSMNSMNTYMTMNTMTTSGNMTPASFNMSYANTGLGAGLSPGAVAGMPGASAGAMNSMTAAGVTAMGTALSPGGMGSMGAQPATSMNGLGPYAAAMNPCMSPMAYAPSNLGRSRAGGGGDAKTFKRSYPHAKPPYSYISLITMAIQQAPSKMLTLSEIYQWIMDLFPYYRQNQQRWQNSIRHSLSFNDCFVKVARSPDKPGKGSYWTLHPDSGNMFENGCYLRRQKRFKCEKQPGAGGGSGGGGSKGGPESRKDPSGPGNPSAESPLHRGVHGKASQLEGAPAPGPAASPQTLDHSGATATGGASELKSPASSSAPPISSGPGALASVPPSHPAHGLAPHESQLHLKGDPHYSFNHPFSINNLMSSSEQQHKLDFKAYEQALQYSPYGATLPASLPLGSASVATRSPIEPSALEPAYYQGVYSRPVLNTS
| Strand | normalised bound fraction [ratio] |
| --- | --- |
| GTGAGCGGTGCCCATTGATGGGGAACCCAAAGTAGGAAAAATATTAAAACAACATTTTTAGGAACTGATAAAATATCTGATTAATATTTATTGACAATATAAATTAAAAACTCTGTTATTTGTTTACATTGGTTTCTCTGTTTCAGACTCTGGTTAGTTCCTCGTGCATATGGCAGCCAGGCAAAAATTCCCAAACCATCATATTTATCATCTTCACTTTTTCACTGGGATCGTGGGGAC | 0.48 |
| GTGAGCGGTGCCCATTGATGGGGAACCACCGCGCTCGCACGGCTTTGTCCGTGCTACAAAGCAGCCTGTTAAACTATTGGAACTAATGCGCCGCAGCTGCGCGAGTGACTTCTGCTGCTTATGTACATAAAAAGGGGGGAGGGCTTCCTGTAACCATCAGATGCCTGCTGCTGGGTTGTTTGGCTAGTCTTTCCATTTGCTTATTCCTGAATCCAAAGGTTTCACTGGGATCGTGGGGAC | 0.324 |
| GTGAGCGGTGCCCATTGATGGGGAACTGTGAGCCACTGCACCCAGCCAAGTGGTTTGTTTATATTCAAGAGTGAGGCACTAAAATGCTAATTGGAAGCTTTGTGTACATGGGTTGGGCTAAATGACTTATATGACTCCTCACAGTGAAACAGGTCAATGGTCAATGGTCTCATTGTCTGAAGTGTTATCTGAGTTCATTGTCTCATGACCAAGAAAATTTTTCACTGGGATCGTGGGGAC | 0.197 |
| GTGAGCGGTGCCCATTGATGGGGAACAAACAGCTCATGCTTATTATCTTATTACAGGAATGCCACTGGTTAAATCAGGCTCTGAATATAAATAGCCATATTACTGCCATCAGGCATCAATGTTTATTTAGTGGCTGTGAGTCATGCATACCTCTTTGATCGGGTTTGGAATGAGCCATTGCCGTTTTTGTTCAAAAAGGTTATTTGCAAAGGCTACAGATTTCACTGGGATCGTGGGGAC | 0.503 |
| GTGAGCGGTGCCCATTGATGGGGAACATCTTCCCCCTCTTCCTTGCCCCACCAGCTCACCTTCCCGGGTTATTTGCACAAAGGAAAATAAATAAAGCCGGCATTCGTTAACCCTCTTCACGCGCATACTGCTGTTTGCTCTGCATGAATCATGGTCCTTACGCGAGGCGTGGCTCCGGGAGAGCAAAGCACCGTGTCAGGCGCATGATCCGGGCTCGCCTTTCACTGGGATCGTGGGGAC | 0.382 |
| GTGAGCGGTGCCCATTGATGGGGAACAGGCACAAGGTATGAATCACTAAGAATCTAGCAGCAGCTCTAGAAGCCTCCAAAGATAATTGCACTTCCCCAACAGGGGGACGGGGGTGGAGTGTAAATATGAAAGAACAGTGGATGGCCTAAATCAGTATGTGTCACTCTTTGTAAAGAGCCACAAGTGTTTGACTAGGGAAAAAGGAAAAGAGGCGAGAGTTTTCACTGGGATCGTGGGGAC | 0.106 |
| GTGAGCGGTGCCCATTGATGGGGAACGATTAAATATAGGAAAGTATGTATAAACTTACGTGAATATGCCCTGTTACATTCTACAAATTAAAAGTTGATTAGCTTTCTTGTGATCCCCAAAGTAAACATAAAAATGTATAAGCCTGAAATATTATCAATTAGAAAATATTTGGAGAAATTGCTTCTTAAAATATGGTAGAATATTTTAAGAAGCATTGTTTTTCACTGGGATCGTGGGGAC | 0.437 |
| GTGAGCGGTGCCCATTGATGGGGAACAAGTCCAAGGTTCTTAGAGGCTTACTGAATGGCTTAGTCATCAACCTGTAGGCAATAATTAATGTGACTCCTACAATATCTCACTCCAACAAAGTCAATAAACTTTTGTGGGTGTTTGTATTAGCTAAGTAAAGGGCTTTTTGTTTTCTAACTTATCTTTGATCTTCTTGGTTGGGAGACCAAACAACATATATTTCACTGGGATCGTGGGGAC | 0.4 |

Sample 3 — technique: RNA Bind-n-Seq; form: RNA; medium: in vitro; tested at: 365 nM; relative to: no-protein control; reading: higher = stronger binding
Target: RNA binding protein fox-1 homolog 2, RRM domain, GST-SBP tag (RBFOX2, Homo sapiens, UniProt O43251-10, residues 100-194)
Setting: natural RNA segment, single round, ends assumed
Residues (chain): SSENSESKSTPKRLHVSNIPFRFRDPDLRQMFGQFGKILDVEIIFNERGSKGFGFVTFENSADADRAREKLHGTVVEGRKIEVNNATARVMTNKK
| Strand | RBNS enrichment (R) |
| --- | --- |
| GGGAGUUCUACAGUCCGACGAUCUAAAUGCAAAUACCUUCCUGCCUCAUCCCAGAAAAUGAAAAAUAAUGCUUUUGACACUGUUUCUAGAAUUUUAAAGUUGAAAAAUGAUGAUAUAAUCCAGAAAUUGUUACUGGAAUUCUCGGGUGCCAA | 0.616 |
| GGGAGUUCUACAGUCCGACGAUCCUUGCUGCCAGCCAAAUAAAUUGGUGUUUAGUGAACAUUUUCAGUGUUUCCCCGCCAUGCAAAGCUUGGCGCCUUGGGAGAAAUGUGUGUAAAUGUACAUUGUAUAGGUAUGGAAUUCUCGGGUGCCAA | 0.388 |
| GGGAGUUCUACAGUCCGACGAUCUGCCUAGCUGGUGAUCACACAGCCUGGCCUGUACCUGCACCCCACUGGAUGGUGGUACAUGGUGGCAGGGACAGGACCACACCCAGUUAAGGCCAGACCAGGCUGAGUGUUGGAAUUCUCGGGUGCCAA | 0.465 |
| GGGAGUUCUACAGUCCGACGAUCGCAUGGAAUUUUACCCAUGAUUUCCUUACCACUAGGAUCUACAUUGAUAAAAAAAAUUGAUUAAAUUUAUUUCAUCUCAUAUAUAGAAGUACUUUAUUACCUGGAAACAUUGGAAUUCUCGGGUGCCAA | 3.03 |
| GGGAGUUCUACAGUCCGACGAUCAGGUCCCUUCUCUUGAGACUCCCCUCUGAGAUCUGAAAAAUGAAGUGGCUUAGGAACAUCAGCAGUGAAGAACUGCCAAGAGUUGGUGAAGGUUGUCUCUUCCGAGGGCCUGGAAUUCUCGGGUGCCAA | 0.361 |
| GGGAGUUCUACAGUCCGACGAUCUUAGACUAAUCACUGGUGGAAAUUAAAUAUGGCAGUUAUGUUAGGUUUCCUAAUAUUUCAAAGGUUCCAAAGGAUCUAGAGCUCUCUAGUUACAUAGCAUUCAUAUAGGAUGGAAUUCUCGGGUGCCAA | 0.669 |
| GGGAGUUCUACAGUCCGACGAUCAUUAUUGGGCUUGCAGAGUUCCCUUAUUCUGGGGCUACAAUGCUUUUAUCGUUCCAAGCUUCAUCUUAGCUUCAGAACAAACUGUUAAAUCAUGAUUUUGCAGAACCUUUUGGAAUUCUCGGGUGCCAA | 0.415 |
| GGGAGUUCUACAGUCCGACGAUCAAGGGACAAUUAGCCACUUGCCCCGACACAGGUCAGCAUCAGGGCCAGAUCCCUUGCACACAGCCCAGGGCGCACACCAUAUCACACGUGGCCUUGUCUAGACCCAGUCCUGGAAUUCUCGGGUGCCAA | 5.65 |
| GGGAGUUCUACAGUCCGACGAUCUCAGAGCUCUUAAUGUUGCUUAGAUGAGGGUGACUGUCAAGUACAAGCAAGACUGGGACCUUAGAAAUCAUUGUAGAAACACAGUUUUGAAAGAAAAAUACCAUGUCUCUUGGAAUUCUCGGGUGCCAA | 0.326 |
| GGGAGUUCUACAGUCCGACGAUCUGGAUUUUGAAGUUAUUUUAAUUAUAGAAUUAUUUUUUUAGAAGAAAGAUGGAUGUGAUAGUCUAUAUUUGUGUGUUUCUAAAGUUGUGUCUUGUGGGGGAAUUGGAUUCUGGAAUUCUCGGGUGCCAA | 7.6 |
| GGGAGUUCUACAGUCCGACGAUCCAGCACAAAUAAGAUGUUCAAGUGAGCCAGAAGCAAGAAGAGCCAUUUUAGUCUUCAUAGCUAUUGGCUAAGAGAGAUAAUGAGCUGAUGGUCUAUUUUAACCUUGAAAGUGGAAUUCUCGGGUGCCAA | 0.444 |
| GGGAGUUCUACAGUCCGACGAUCUCUGUGACAGGCUCCUCCCCACCCCCGGAUAUCCCGGUGCUGCCAGUAGUGAGUGGACAGAUGGAAGAAGCACCGUGUCAUUUGCCAGAGUACAAAGACACGAUUACAUAUGGAAUUCUCGGGUGCCAA | 0.51 |

Sample 4 — technique: RNAcompete; form: RNA; medium: in vitro; tested at: 20 nM; setting: 7-mer, probes averaged, single round; relative to: mean of 7-mers; reading: higher = stronger binding
Target: PABPC1L2, full length, GST fusion (mouse, UniProt A0ABA7IW68)
Target sequence (chain): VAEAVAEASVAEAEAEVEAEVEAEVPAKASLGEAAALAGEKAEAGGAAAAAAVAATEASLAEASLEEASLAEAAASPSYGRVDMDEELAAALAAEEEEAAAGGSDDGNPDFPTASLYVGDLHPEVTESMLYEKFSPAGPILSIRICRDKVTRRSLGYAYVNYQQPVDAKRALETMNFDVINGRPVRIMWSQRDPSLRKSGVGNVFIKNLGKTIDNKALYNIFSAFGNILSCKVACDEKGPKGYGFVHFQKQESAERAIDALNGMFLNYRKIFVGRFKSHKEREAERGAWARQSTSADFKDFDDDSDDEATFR
| Strand | 7-mer Z-score |
| --- | --- |
| GUCACCC | -0.306 |
| AAGCGCG | 0.137 |
| GUGGUUG | -0.231 |
| UCGUACA | -0.24 |
| GACAGUU | -0.168 |
| UAGUCGC | -0.331 |
| UUUUAGA | 0.153 |
| AUCUAGA | 0.104 |
| CCGUGUU | -0.46 |
| CCCUGAC | -0.266 |
| AUGCUCA | -0.211 |
| CCUUGUC | -0.329 |
| CCUCUGC | -0.394 |
| CACUAUG | -0.13 |
| CGGAAUC | -0.132 |
| UCGGGGA | 0.1 |
| AUUCAUG | 0.0424 |
| AAAACCC | 2.21 |
| CUAUUAC | -0.19 |
| CUUCGAU | -0.135 |
| UGUCGUU | -0.407 |
| CCUCAAC | -0.286 |
| GAGUCCC | -0.382 |
| UUCUUCA | -0.369 |

Some of these lines once more (sample 4):
| Strand | 7-mer Z-score |
| --- | --- |
| CCCUGAC | -0.266 |
| CUAUUAC | -0.19 |
| CUUCGAU | -0.135 |
| CCUCAAC | -0.286 |
| UCGGGGA | 0.1 |
| CACUAUG | -0.13 |
| CCUCUGC | -0.394 |
